Assay results pooled from the literature.
Each numbered part is a random draw from the data of one study; scales do not carry over between parts. Values joined by “and” are separate records of one study, mostly repeats; a detail may differ.
Chain of UniProt P42336 (whole entry, unmodified, looked up): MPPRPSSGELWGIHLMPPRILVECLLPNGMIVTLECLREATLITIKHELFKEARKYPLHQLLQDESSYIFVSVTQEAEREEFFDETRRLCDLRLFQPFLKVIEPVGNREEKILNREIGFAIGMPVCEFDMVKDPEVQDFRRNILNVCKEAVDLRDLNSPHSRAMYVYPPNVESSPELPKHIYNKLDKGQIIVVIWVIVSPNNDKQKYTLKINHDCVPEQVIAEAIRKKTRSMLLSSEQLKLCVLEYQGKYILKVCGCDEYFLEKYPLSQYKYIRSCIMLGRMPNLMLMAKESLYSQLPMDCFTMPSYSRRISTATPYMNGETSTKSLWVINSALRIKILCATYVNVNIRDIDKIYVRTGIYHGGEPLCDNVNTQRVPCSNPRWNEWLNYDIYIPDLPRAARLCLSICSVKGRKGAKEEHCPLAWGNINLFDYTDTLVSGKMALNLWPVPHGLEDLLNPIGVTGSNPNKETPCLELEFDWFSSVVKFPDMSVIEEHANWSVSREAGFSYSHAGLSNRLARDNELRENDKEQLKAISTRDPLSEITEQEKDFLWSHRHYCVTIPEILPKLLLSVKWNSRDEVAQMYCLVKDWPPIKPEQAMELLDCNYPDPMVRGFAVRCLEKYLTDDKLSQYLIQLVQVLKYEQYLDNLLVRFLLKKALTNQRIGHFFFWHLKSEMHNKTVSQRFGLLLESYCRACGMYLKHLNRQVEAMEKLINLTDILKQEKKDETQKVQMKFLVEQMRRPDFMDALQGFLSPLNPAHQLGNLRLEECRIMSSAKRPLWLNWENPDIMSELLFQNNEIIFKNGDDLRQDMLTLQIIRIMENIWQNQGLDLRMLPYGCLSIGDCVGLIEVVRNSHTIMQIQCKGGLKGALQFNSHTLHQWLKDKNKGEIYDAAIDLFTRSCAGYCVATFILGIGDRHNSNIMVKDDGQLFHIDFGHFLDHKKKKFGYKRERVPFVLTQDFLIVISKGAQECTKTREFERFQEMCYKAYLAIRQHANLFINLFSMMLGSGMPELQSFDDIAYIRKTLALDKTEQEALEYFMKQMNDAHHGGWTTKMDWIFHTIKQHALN
Chain of UniProt O15197 (whole entry, looked up): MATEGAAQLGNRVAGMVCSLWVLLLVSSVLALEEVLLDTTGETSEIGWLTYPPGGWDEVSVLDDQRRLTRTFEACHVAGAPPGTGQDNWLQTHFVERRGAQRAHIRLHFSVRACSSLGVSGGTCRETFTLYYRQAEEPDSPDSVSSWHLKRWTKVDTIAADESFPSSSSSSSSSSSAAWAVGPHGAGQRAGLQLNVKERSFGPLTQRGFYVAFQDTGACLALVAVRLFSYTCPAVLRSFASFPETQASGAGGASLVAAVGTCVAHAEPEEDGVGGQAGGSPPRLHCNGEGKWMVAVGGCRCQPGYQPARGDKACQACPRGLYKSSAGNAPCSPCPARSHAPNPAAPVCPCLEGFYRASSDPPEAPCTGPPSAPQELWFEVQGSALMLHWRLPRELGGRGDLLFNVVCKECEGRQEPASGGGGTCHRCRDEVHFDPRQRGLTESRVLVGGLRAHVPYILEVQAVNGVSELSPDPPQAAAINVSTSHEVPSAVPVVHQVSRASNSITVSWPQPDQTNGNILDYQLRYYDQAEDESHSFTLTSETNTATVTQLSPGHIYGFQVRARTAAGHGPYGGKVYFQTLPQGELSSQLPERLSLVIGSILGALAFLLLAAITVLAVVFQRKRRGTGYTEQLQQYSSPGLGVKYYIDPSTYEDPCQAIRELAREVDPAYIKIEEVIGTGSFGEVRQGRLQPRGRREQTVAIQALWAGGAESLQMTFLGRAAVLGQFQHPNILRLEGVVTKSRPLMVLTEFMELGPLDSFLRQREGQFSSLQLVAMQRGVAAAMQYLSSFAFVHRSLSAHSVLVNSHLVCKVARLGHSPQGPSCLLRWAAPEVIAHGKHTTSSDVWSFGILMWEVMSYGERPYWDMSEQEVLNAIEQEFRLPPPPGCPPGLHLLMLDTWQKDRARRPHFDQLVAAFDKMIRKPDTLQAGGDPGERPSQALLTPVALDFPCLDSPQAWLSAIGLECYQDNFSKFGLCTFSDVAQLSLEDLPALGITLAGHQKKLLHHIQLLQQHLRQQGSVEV
Chain of UniProt Q9NY57 (whole entry, looked up): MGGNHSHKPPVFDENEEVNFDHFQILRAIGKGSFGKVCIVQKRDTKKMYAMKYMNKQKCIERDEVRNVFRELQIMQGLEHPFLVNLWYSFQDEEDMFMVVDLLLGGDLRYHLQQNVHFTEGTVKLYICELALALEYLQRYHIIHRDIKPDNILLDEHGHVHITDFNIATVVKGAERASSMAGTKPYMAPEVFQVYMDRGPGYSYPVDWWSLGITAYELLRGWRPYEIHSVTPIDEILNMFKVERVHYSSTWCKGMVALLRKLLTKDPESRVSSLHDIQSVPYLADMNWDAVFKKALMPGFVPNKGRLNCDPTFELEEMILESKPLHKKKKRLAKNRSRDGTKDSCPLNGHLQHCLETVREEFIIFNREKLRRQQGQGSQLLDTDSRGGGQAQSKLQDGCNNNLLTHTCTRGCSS
Chain of UniProt P16234 (whole entry, looked up): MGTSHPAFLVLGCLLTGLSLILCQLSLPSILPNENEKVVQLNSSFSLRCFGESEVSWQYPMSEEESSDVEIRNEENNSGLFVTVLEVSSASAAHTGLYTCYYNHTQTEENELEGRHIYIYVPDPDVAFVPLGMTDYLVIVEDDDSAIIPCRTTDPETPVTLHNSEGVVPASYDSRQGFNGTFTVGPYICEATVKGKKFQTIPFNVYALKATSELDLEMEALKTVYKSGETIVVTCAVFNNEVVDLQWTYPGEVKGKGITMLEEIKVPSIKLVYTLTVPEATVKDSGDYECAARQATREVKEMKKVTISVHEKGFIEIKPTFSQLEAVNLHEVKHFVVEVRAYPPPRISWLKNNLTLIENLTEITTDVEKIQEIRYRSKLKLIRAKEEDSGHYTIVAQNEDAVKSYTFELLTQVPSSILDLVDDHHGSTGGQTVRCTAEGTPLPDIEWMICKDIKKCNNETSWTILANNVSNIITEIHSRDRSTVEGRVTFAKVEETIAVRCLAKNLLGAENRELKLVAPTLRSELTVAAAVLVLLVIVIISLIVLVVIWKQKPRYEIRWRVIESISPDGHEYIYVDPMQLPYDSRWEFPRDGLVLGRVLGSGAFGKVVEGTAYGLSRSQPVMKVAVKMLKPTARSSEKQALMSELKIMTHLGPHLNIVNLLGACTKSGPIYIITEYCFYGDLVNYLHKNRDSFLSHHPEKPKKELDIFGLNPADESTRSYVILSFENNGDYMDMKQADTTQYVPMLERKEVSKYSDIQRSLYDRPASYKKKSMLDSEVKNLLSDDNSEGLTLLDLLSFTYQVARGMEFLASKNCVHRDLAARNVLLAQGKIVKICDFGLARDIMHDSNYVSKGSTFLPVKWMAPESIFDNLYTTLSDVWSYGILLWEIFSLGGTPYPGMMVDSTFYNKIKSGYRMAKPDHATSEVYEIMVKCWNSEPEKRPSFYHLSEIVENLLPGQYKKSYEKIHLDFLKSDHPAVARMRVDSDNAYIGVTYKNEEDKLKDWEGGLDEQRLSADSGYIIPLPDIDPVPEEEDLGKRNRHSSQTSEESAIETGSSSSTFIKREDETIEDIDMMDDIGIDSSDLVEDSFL
Chain of UniProt O43318 (whole entry, looked up): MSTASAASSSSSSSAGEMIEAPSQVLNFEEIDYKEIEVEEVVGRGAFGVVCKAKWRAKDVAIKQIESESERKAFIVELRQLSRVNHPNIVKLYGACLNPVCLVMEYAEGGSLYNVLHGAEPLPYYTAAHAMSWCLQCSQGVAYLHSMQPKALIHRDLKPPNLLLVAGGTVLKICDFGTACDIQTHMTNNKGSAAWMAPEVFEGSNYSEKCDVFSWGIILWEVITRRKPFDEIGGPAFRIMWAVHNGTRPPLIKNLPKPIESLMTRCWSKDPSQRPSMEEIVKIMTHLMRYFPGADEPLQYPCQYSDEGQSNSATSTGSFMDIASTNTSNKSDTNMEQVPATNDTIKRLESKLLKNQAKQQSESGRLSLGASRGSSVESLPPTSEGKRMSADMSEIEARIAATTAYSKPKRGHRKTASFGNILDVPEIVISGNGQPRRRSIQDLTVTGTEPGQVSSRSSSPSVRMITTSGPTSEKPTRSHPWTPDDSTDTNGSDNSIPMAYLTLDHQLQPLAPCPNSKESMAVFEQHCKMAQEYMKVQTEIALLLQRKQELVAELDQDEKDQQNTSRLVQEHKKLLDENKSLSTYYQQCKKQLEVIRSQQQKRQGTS
Chain of UniProt Q6P2M8 (whole entry, looked up): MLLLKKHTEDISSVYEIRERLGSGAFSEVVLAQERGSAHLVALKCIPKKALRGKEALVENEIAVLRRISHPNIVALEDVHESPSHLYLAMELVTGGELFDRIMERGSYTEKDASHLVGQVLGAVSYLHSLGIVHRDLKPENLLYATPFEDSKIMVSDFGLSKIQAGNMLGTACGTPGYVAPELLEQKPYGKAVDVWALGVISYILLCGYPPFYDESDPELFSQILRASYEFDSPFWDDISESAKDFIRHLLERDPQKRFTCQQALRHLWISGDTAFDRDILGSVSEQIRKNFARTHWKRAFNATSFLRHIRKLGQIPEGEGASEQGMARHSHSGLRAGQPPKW

Block 1 — effect on: enzyme activity; action: inhibitor; concentration: 0.5 µM; reference: control
Compound: CCn1cnc2c(Nc3cccc(Cl)c3)nc(N[C@H]3CCCC[C@H]3N)nc21
target | remaining activity [%]
Serine/threonine-protein kinase 3 (STK3, Homo sapiens, UniProt Q13188) | 83.9
Serine/threonine-protein kinase B-raf (BRAF, Homo sapiens, UniProt P15056) | 93
Serine/threonine-protein kinase 4 (STK4, Homo sapiens, UniProt Q13043) | 91.3
Dual specificity protein kinase TTK (TTK, Homo sapiens, UniProt P33981) | 99.7
Mitogen-activated protein kinase kinase kinase 7 (MAP3K7, Homo sapiens, UniProt O43318) | 98.9

Block 2 — organism: Cryptosporidium parvum; method: time-kill; strain: nanoluciferase-expressing; reference: DMSO
Compound: CNC(=O)c1ccc(-c2cnn3ccc(C(=O)N(C)c4ccc(Cl)c(C(=O)OC)c4)cc23)cc1
setting | luminescence
81 nM, 72 h | 12.3% and 10.6%
27 nM, 8 h | 84.7% and 101%
9 nM, 72 h | 15.3% and 30.6%
27 nM, 0 h | 97.4% and 91.2% and 99.4% and 90.3% and 103% and 90.1% and 98% and 91.4%
81 nM, 4 h | 118% and 116%
3 nM, 24 h | 86.5% and 110%

Block 3 — method: competition with immobilised ligand; concentration: 1 µM
Compound: Cn1cncc1[C@@](O)(COc1ccc(C#N)cc1-c1ccc(OC(F)(F)F)cc1)c1ccc(C#N)cc1
target | test | remaining binding [%]
Platelet-derived growth factor receptor alpha (PDGFRA, Homo sapiens, UniProt P16234) | cell-free assay | 100
Mast/stem cell growth factor receptor Kit (KIT, Homo sapiens, UniProt P10721, L576P) | cell-free assay | 95
Receptor-type tyrosine-protein kinase FLT3 (FLT3, Homo sapiens, UniProt P36888, F691L/ITD) | cell-free assay | 100
Ribosomal protein S6 kinase alpha-6, N-terminal kinase domain (RPS6KA6, Homo sapiens, UniProt Q9UK32) | cell-free assay | 94
Epidermal growth factor receptor (EGFR, Homo sapiens, UniProt P00533, G719C) | cell-free assay | 66
Serine/threonine-protein kinase Nek2 (NEK2, Homo sapiens, UniProt P51955) | cell-free assay | 95
Casein kinase II subunit alpha (CSNK2A1, Homo sapiens, UniProt P68400) | cell-free assay | 100
eIF-2-alpha kinase GCN2, C-terminal kinase domain (EIF2AK4, Homo sapiens, UniProt Q9P2K8, S808G) | cell-free assay | 100
Calcium/calmodulin-dependent protein kinase type 1B (PNCK, Homo sapiens, UniProt Q6P2M8) | cell-free assay | 100
RAF proto-oncogene serine/threonine-protein kinase (RAF1, Homo sapiens, UniProt P04049) | cell-free assay | 85
Phosphatidylinositol 4,5-bisphosphate 3-kinase catalytic subunit alpha isoform (PIK3CA, Homo sapiens, UniProt P42336, H1047L) | cell-free assay | 100
Serine/threonine-protein kinase 32B (STK32B, Homo sapiens, UniProt Q9NY57) | cell-free assay | 97
TRAF2 and NCK-interacting protein kinase (TNIK, Homo sapiens, UniProt Q9UKE5) | cell-free assay | 99
Phosphatidylinositol 4,5-bisphosphate 3-kinase catalytic subunit alpha isoform (PIK3CA, Homo sapiens, UniProt P42336, E545K) | cell-free assay | 80
Serine/threonine-protein kinase MAK (MAK, Homo sapiens, UniProt P20794) | binding | 99
Megakaryocyte-associated tyrosine-protein kinase (MATK, Homo sapiens, UniProt P42679) | cell-free assay | 100
Fibroblast growth factor receptor 2 (FGFR2, Homo sapiens, UniProt P21802) | cell-free assay | 100
Serine/threonine-protein kinase 17A (STK17A, Homo sapiens, UniProt Q9UEE5) | cell-free assay | 100
ALK tyrosine kinase receptor (ALK, Homo sapiens, UniProt Q9UM73, L1196M) | cell-free assay | 100
Ephrin type-B receptor 6 (EPHB6, Homo sapiens, UniProt O15197) | cell-free assay | 100
Tyrosine-protein kinase Fgr (FGR, Homo sapiens, UniProt P09769) | cell-free assay | 100
Serine/threonine-protein kinase DCLK1 (DCLK1, Homo sapiens, UniProt O15075) | cell-free assay | 87
Calcium/calmodulin-dependent protein kinase type 1D (CAMK1D, Homo sapiens, UniProt Q8IU85) | cell-free assay | 100
Cyclin-dependent kinase-like 5 (CDKL5, Homo sapiens, UniProt O76039) | binding | 93
Receptor tyrosine-protein kinase erbB-3 (ERBB3, Homo sapiens, UniProt P21860) | cell-free assay | 89

Block 4 — cell line: HaCaT; concentration: 100 µM; time: 18 h
SMILES | viability [%]
C=C1CC[C@@]2(O)[C@H]3Cc4ccc(O)c5c4[C@@]2(CCN3CC2CC2)[C@H]1O5 | 112
CCOC(=O)c1cncn1[C@H](C)c1ccccc1 | 113
N#Cc1ccccc1-c1cc(-c2ccccn2)cn(-c2ccccc2)c1=O | 82
C=CC[C@]1(O)CC[C@H]2[C@@H]3CCC4=CCCC[C@@H]4[C@H]3CC[C@@]21C | 17.8
CC[C@]12C=CCN3CC[C@]4(C(=C(C(=O)OC)C1)Nc1ccccc14)[C@@H]32 | 56.8

Block 5 — effect on: enzyme activity; action: inhibitor; concentration: 10 µM
Target: Calcium/calmodulin-dependent protein kinase type II subunit alpha (CAMK2A, Homo sapiens, UniProt Q9UQM7)
Chain of UniProt Q9UQM7 (whole entry, looked up): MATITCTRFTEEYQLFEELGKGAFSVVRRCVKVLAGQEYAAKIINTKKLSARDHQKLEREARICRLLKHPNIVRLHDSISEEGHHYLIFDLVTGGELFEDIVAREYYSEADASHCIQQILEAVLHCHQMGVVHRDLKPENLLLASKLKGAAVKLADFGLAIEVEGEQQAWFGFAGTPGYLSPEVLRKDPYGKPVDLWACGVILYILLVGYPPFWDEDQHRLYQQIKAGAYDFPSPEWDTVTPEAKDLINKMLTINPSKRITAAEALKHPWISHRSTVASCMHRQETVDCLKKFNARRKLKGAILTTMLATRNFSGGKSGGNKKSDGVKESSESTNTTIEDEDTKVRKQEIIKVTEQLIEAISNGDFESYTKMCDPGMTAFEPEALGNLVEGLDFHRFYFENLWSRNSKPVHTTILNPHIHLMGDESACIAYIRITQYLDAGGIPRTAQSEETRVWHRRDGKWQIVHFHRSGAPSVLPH
SMILES | inhibition [%]
Cc1ccccc1-n1c(CF)nc2ccc(N)cc2c1=O | -9
COc1cc(OC)c(OC)cc1C=O | -23
O=C(O)CNC(=O)c1cccnc1 | -5
COc1cc2c3c(c1OC)-c1ccccc1C[C@H]3NCC2 | -7

Further values, each from its own experiment
SMILES | tested on | test | system | setting | scale | quantity | value
Cc1cc(Cl)cc(C(=O)NCCC2=NOC(CS(C)(=O)=O)C2)c1NC(=O)c1cc(Br)nn1-c1ncccc1Cl (centres unmarked) |  |  | mouse, microsomes or S9 | 2 µM, 0.5 h |  | remaining compound | 14.7%
Cc1sc2c(c1C)C(c1ccc(Cl)cc1)=NC(CC(=O)OC(C)(C)C)c1nnc(C)n1-2 (centres unmarked) | mouse MPNST tumor cells | high-content immunofluorescence imaging, refers to: nuclear SOX9 |  | 10 µM, 12 h, mean of 2 replicates | reference: DMSO control, higher = more nuclear SOX9 | nuclear SOX9 intensity | 124 % of DMSO
CCOc1ccccc1N1CCN(Cc2cc(F)ccc2F)CC1 |  |  | mouse, microsomes or S9 | 2 µM, 0.5 h |  | remaining compound | 37.9%
CCOc1ccc(Nc2c3c(nc4ccccc24)CCC3)cc1 | HEK293 | resazurin |  | 3.32 µM, 10% serum |  | cytotoxicity | 19% and 10%
NCC(CC(=O)O)c1ccc(Cl)cc1 (centres unmarked) | mouse MPNST tumor cells | high-content immunofluorescence imaging, refers to: nuclear SOX9 |  | 10 µM, 12 h, mean of 2 replicates | reference: DMSO control, higher = more nuclear SOX9 | nuclear SOX9 intensity | 101 % of DMSO

For quick reference, copied from above (block 3):
target | test | remaining binding [%]
Megakaryocyte-associated tyrosine-protein kinase (MATK, Homo sapiens, UniProt P42679) | cell-free assay | 100
Calcium/calmodulin-dependent protein kinase type 1B (PNCK, Homo sapiens, UniProt Q6P2M8) | cell-free assay | 100
Ribosomal protein S6 kinase alpha-6, N-terminal kinase domain (RPS6KA6, Homo sapiens, UniProt Q9UK32) | cell-free assay | 94
